Measured values of several laboratories.
Every numbered part comes from another study and shows a few of its results, in no order. Changes are numbered by the printed parent chain.
UniProt Q13555, sequence (whole entry, looked up): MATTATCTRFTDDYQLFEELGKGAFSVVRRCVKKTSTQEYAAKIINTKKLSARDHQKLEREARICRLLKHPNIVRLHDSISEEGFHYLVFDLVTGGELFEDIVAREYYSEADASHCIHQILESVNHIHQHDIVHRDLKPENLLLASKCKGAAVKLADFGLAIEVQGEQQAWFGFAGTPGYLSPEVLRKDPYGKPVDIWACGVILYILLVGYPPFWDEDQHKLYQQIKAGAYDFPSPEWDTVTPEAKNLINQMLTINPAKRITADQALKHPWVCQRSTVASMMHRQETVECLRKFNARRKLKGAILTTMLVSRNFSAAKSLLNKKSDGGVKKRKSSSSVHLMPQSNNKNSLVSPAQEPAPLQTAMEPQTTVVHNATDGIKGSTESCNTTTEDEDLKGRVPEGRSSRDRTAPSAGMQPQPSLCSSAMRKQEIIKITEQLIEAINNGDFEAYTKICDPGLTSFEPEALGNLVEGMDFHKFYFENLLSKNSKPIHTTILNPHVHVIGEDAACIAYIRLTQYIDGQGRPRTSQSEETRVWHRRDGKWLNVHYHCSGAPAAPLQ
UniProt Q16288, sequence (whole entry, looked up): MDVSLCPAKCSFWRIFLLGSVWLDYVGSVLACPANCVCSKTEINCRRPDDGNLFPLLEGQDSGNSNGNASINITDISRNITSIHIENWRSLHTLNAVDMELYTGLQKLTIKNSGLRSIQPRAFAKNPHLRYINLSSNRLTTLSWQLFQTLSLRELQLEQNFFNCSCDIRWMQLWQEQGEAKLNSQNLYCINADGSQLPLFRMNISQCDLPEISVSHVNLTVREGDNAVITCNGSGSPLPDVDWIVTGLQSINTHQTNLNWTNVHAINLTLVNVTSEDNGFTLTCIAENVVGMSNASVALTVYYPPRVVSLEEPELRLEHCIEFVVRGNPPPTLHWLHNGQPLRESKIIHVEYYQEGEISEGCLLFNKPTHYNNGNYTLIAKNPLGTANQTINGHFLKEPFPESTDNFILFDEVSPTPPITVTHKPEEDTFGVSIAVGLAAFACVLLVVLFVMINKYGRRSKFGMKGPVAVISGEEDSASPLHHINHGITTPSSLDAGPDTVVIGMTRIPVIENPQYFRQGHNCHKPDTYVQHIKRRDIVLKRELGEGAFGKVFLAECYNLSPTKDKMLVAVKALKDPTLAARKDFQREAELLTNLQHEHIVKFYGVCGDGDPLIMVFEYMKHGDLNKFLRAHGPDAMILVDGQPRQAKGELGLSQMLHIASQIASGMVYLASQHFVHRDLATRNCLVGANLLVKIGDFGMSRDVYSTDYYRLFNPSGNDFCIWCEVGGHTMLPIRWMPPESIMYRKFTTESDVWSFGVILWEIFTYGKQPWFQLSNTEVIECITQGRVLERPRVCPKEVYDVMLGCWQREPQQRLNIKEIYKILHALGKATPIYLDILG
UniProt P16234, sequence (whole entry, looked up): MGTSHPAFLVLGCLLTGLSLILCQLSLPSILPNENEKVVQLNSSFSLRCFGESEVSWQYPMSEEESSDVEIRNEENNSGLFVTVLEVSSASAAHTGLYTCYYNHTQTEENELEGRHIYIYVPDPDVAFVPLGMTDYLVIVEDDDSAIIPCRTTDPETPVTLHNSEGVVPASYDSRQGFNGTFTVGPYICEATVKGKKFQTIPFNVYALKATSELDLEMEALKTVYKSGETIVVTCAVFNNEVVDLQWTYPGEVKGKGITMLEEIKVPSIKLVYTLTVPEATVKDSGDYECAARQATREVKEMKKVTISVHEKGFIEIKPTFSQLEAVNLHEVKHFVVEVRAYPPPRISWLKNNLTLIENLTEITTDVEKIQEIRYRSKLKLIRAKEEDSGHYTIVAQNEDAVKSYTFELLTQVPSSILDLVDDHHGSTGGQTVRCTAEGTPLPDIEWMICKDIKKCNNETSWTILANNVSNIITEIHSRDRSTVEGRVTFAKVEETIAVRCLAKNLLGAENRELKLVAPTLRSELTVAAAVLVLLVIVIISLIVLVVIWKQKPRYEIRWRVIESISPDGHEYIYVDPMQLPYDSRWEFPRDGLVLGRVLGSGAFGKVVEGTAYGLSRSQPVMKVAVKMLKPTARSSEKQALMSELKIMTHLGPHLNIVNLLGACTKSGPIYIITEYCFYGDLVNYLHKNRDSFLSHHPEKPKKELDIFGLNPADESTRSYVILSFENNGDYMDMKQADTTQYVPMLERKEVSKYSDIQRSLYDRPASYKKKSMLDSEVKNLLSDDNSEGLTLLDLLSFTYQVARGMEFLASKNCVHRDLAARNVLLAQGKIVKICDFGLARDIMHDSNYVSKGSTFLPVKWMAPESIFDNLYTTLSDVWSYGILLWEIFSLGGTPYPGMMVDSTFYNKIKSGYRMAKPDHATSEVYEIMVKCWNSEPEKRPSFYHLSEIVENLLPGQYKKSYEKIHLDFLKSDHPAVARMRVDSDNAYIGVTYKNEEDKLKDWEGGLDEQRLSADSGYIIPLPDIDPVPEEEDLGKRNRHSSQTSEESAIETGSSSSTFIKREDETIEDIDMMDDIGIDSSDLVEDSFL
UniProt Q07002, sequence (whole entry, looked up): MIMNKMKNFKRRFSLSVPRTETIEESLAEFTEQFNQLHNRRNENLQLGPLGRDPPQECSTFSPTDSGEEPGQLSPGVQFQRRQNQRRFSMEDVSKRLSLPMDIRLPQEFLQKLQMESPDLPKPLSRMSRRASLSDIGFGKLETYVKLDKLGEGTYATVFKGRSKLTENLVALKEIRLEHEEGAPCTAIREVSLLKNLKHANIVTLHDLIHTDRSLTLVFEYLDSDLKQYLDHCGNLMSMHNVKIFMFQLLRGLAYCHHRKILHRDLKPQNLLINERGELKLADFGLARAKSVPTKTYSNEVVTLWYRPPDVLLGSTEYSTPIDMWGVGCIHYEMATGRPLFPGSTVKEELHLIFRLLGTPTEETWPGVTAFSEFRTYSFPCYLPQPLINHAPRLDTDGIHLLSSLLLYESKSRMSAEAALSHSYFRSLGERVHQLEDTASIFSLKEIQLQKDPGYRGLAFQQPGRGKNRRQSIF
UniProt P42336, sequence (whole entry, unmodified, looked up): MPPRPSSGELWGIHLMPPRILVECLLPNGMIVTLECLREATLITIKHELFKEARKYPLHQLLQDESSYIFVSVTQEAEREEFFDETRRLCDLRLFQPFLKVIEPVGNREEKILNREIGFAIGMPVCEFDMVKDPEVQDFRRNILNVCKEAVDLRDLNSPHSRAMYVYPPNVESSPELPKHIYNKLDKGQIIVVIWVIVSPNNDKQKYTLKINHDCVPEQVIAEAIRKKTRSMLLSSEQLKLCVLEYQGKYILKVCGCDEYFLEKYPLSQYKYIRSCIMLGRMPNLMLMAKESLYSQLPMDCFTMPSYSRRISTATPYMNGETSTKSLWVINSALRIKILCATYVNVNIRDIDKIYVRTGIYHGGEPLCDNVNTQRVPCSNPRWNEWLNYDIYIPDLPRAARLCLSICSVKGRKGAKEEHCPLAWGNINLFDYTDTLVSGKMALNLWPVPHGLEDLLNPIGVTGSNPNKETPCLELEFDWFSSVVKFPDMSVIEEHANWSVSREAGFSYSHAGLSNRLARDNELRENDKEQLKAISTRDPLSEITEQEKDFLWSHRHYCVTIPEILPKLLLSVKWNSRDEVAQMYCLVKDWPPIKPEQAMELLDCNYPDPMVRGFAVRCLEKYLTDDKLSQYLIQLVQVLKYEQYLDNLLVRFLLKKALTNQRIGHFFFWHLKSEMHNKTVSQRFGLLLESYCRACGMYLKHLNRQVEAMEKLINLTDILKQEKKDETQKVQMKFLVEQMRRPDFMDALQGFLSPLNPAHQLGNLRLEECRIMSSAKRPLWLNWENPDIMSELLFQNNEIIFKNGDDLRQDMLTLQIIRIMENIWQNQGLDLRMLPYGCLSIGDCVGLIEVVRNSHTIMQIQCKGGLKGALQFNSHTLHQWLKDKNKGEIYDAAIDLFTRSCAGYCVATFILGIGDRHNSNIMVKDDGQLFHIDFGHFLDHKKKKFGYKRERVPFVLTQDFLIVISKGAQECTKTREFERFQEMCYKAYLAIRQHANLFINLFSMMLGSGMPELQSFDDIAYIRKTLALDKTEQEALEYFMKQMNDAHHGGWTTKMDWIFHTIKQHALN
UniProt O14920, sequence (whole entry, looked up): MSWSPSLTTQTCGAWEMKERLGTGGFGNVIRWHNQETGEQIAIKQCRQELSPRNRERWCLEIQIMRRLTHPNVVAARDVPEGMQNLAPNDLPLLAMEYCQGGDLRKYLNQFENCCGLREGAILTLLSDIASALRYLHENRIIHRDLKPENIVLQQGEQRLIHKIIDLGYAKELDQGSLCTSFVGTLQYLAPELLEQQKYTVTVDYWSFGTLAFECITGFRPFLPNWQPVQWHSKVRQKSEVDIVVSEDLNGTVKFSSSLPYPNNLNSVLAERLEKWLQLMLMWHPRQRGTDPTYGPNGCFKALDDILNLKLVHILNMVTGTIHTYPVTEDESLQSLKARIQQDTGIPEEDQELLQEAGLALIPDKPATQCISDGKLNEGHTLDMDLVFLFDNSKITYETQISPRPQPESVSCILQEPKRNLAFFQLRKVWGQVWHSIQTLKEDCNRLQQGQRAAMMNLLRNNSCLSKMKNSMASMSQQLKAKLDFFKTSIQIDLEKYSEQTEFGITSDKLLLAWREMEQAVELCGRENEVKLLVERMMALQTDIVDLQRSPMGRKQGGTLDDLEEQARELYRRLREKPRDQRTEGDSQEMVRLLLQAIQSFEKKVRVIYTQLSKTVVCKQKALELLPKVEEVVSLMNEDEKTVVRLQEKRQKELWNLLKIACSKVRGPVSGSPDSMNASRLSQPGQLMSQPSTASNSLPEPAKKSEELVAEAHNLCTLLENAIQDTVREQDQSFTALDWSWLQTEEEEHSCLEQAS

Set 1
Target: Dual specificity tyrosine-phosphorylation-regulated kinase 4 (DYRK4, Homo sapiens, UniProt Q9NR20)
Effect on: enzyme activity
Mode: inhibitor
Tested at: 0.5 µM
Relative to: control
Construct (Q9NR20 1-520): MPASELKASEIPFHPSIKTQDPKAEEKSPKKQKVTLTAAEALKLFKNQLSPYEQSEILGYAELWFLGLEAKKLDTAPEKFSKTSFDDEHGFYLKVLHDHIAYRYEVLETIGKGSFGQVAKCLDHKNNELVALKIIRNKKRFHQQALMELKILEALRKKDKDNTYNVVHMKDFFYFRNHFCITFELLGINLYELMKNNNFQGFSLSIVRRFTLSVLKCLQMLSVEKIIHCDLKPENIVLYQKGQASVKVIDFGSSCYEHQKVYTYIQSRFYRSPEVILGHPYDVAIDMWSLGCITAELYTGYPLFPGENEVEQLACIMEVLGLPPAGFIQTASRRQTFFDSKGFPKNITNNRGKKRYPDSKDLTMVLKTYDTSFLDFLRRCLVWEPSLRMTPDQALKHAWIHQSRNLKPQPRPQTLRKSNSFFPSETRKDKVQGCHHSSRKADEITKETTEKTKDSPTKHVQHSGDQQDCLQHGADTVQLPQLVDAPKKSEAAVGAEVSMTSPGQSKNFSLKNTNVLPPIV
Compound	remaining activity [%]
Oc1ccc(-c2nc(-c3ccncc3)c(-c3ccc(F)cc3)[nH]2)cc1	101
Nc1ncnc2n[nH]c(Nc3ccc(F)cc3)c12	104
Cc1cccc(-c2[nH]c(C(C)(C)C)nc2-c2ccc3c(c2)OCO3)n1	89.7
COc1cc2ncnc(Nc3ccc(Oc4ccccc4)cc3)c2cc1OC	97.3
O=C(CCCc1ccc(-c2ccccc2F)cc1)Nc1ccc(O)cc1	97.4
N#CC(C#N)=C(N)/C(C#N)=C/c1ccc(O)cc1	107
COc1cc2ncnc(Nc3ccc(F)c(Cl)c3)c2cc1OCCCN1CCOCC1	105
CCOC(=O)c1c(C)[nH]c(/C=C2\C(=O)Nc3ccccc32)c1C	99.6
O=c1c2ccccc2[nH]c(=S)n1CCN1CCC(=C(c2ccc(F)cc2)c2ccc(F)cc2)CC1	97.5
CC(C)[C@H](CO)Nc1nc(Nc2cc(N)cc(Cl)c2)c2ncn(C(C)C)c2n1	91.6
O=C(O)c1ccc2c3c1cccc3c(=O)n1c3ccccc3nc21	95.8
O=C1NC(=O)C(c2cn(CCCn3ccnc3)c3ccccc23)=C1Nc1ccccc1	89
Nc1ccc2ncnc(NCCc3ccc(Oc4ccccc4)cc3)c2c1	93.7
NCCNc1ncc(C(N)=O)c(Nc2cccc(C(F)(F)F)c2)n1	98.2
Cc1nc(-c2ccccc2)c(-c2ccncc2)o1	91.2
Cn1sc(=O)n(Cc2ccccc2)c1=O	99.3

Set 2
Target: CCNE2, cyclin fold, Cln2 fusion (human)
Method: yeast growth competition, sequencing
Sample: yeast
Setting: strong parent motif
Relative to: not given
Direction: higher = stronger binding
Parent: CDKN1B docking peptide (human); PSACRNLFGPVDH; partner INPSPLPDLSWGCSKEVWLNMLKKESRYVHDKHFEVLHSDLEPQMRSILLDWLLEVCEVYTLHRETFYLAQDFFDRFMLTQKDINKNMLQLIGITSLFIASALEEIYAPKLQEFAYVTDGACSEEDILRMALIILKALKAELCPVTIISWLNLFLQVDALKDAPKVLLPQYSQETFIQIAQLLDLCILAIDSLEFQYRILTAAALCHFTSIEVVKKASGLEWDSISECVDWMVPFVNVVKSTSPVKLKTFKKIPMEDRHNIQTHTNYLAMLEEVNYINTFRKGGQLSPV
Substitution	normalised enrichment score
R5T	-0.322
N6P	-0.0713
C4F	0.815
L7S	0.37
H13Y	1.01
C4W	0.945
S2D	0.315
S2V	0.867

Set 3
Structure (SMILES): Nc1cnc(N2CCc3cc(S(=O)(=O)Nc4c(F)cc(Cl)cc4F)cc(N4CCCC4=O)c32)nc1
Method: competition with immobilised ligand
Tested at: 1 µM
target	effect on	remaining binding [%]
IKBKB (Homo sapiens, UniProt O14920)	cell-free assay	96
MARK1 (Homo sapiens, UniProt Q9P0L2)	cell-free assay	76
PIP4K2C (Homo sapiens, UniProt Q8TBX8)	cell-free assay	100
Tyrosine-protein kinase ABL1, non-phosphorylated (ABL1, Homo sapiens, UniProt P00519, F317I)	binding	100
WNK1 (Homo sapiens, UniProt Q9H4A3)	cell-free assay	100
CAMK2G (Homo sapiens, UniProt Q13555)	cell-free assay	100
PDGFRA (Homo sapiens, UniProt P16234)	cell-free assay	89
CHEK2 (Homo sapiens, UniProt O96017)	cell-free assay	92
NTRK3 (Homo sapiens, UniProt Q16288)	cell-free assay	97
CDK18 (Homo sapiens, UniProt Q07002)	cell-free assay	100
PIK3CA (Homo sapiens, UniProt P42336, I800L)	cell-free assay	80
PIK3C2G (Homo sapiens, UniProt O75747)	cell-free assay	78

Set 4
Target: Max-binding protein MNT, bHLH-zipper, MAX partner unstated (MNT, Homo sapiens, UniProt Q99583, residues 220-300)
Method: protein-binding microarray
Molecule type: double-stranded DNA, one strand shown
Sample: in vitro
Tested at: not given
Setting: k-mer, scored over probes, only values ≥0.25
Direction: higher = stronger binding
Target sequence (chain): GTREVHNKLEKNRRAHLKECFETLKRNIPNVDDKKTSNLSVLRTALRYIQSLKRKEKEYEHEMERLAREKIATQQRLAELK
Strand	E-score
ATGCTCAC	0.284
AAGCACGC	0.41
ACACATGC	0.446
CAGCATGA	0.322
CTCGTGTC	0.394
TCGTGGCA	0.31
CTCGTGCA	0.394
ACCACGGG	0.328
